Assay results collected from several papers.
Values joined by “and” are separate records of one study, mostly repeats; a detail may differ.

SMILES	cell line	assay	setting	scale	endpoint	result
N#CC1=C(N)n2c(s/c(=C\c3cccs3)c2=O)=C(C#N)C1c1cccs1 (stereo not shown)	C127 LDR GFP reporter cells	silenced GFP reporter induction, activator, high-content imaging	retest, two-run mean	–	efficacy	24%
CCCCN1C[C@H](O)[C@@H](O)[C@@H](O)[C@H]1CO	sample BB patient fibroblasts	Gb3 level lowering, LC-MS/MS, item: Gb3 d18:1/24:1	216 h	–	IC50	10.7 µM
COc1cnc2cccc(N3CCc4c(cc(Cn5ccnc5C)cc4-c4cn(C)nc4C(F)(F)F)C3=O)c2c1	JHOS2	cell growth	120 h	–	EC50	0.46 µM
COc1cc2nc(N3CCN(C(=O)c4ccco4)CC3)nc(N)c2cc1OC	human iPSC-derived cardiomyocytes	MyBP-C/MYH ratio, plate-normalised SD score	concentration not given, primary screen	direction not given	activity score	4.4
CCn1cc(-c2cc(Cn3ccoc3=N)cc3c2CCN([C@@H](C)c2cc(OC)ccn2)C3=O)c(C(F)(F)F)n1	EBC-1	cell growth, inhibitor	120 h	–	EC50	> 30 µM
Cn1cc(-c2ccc(-c3cncc(Cl)c3N3CCC4(CCNC4=O)CC3)cc2)cn1	COLO 205	gene expression, microarray, item: PLD1 mRNA	concentration not given, 2 h	reference: untreated cells	log2 fold change	2.16
CCNC(=O)c1noc(-c2cc(C(C)C)c(O)cc2O)c1-c1ccc(CN2CCOCC2)cc1	human iPSC-derived cardiomyocytes	MyBP-C/MYH ratio, plate-normalised SD score	concentration not given, primary screen	direction not given	activity score	3.7
COc1ccc([C@H]2N(c3ccc(Cl)c(Cl)c3)C(=O)[C@@H]3CCCN32)c(OC)c1OC (racemic)	PC-12 cells expressing mutant huntingtin-eGFP	fluorescence microscopy	50 µM	–	mutant huntingtin aggregate size	no effect
CCCCCCCCCCCCCCCCOP(=O)([O-])OCC[N+](C)(C)C	human iPSC-derived cardiomyocytes	MyBP-C/MYH ratio, plate-normalised SD score	concentration not given, primary screen	direction not given	activity score	13.4
CCOC(=O)CSc1nc(-c2ccc(Cl)cc2)c2c(NC(=O)c3ccccc3)nnc-2[nH]1	NCI60 cell panel	SRB	10 µM	–	mean growth percent	96.6%
Cn1cc(Nc2nccc(-c3ccc4c(c3)CN(C3COC3)CC[C@H]4NC(=O)c3cn(C(C)(C)C)nn3)n2)cn1	mouse splenic B cells	item: Prolactin signalling	30 mg/kg, IgD-activated in vivo	reference: vehicle, direction not given	pathway activation z-score	1.94
Cc1cc(Nc2ncc(Cl)c(Nc3ccccc3S(=O)(=O)C(C)C)n2)c(OC(C)C)cc1C1CCNCC1	CLB-GE	phosphoproteomics LC-MS/MS, item: PDCD4 phosphorylation	200 nM, 60 min	reference: untreated	log2 fold change	-1.59
COc1cc(/C=C/C(=O)N2CCC=CC2=O)cc(OC)c1OC	human iPSC-derived cardiomyocytes	MyBP-C/MYH ratio, plate-normalised SD score	concentration not given, primary screen	direction not given	activity score	3.1
CCn1cc(-c2cc(Cn3ccnc3)cc3c2CCN([C@H](c2cc(OC)ccn2)C2CC2)C3=O)c(C(F)(F)F)n1	SK-BR-3	cell growth, inhibitor	120 h	–	EC50	> 30 µM
Nc1ncnc2c1ncn2[C@@H]1O[C@H](CO)[C@@H](O)[C@H]1O	activated human T cells	–	10 µM, 72 h	higher = more viable cells	viability	79.4 a.u. and 80.5 a.u. and 74.6 a.u.
CC(=O)N(c1onc(C)c1C)S(=O)(=O)c1ccc(N)cc1	human iPSC-derived cardiomyocytes	MyBP-C/MYH ratio, plate-normalised SD score	concentration not given, primary screen	direction not given	activity score	3.2
O=C(/C=C/C=C/C=C/C1CCCCC1)NC1=C[C@@](O)(/C=C/C=C/C=C/C(=O)NC2=C(O)CCC2=O)[C@@H]2O[C@@H]2C1=O	U2OS	cell growth, CellTiter-Glo	78 h	–	GI50	8.97 µM
Cc1cc(OCc2nnc(SC3CCCC3)n2-c2cccnc2)ccc1-c1ccc(S(C)(=O)=O)cc1	MYBPC3 iPSC cardiomyocytes	plate-normalised	concentration not given, 24 h, hit retest	–	MyBP-C level	1%
C=CCn1c(=O)c2cnc(Nc3ccc(N4CCN(C)CC4)cc3)nc2n1-c1ccc2c(n1)[C@@](O)(CC)CC2	A-427	capillary western blot	0.1, 0.3, 1 µM, 16 h	–	cyclin E1 level	decreased

For quick reference, copied from above:
SMILES	cell line	assay	setting	scale	endpoint	result
CCn1cc(-c2cc(Cn3ccoc3=N)cc3c2CCN([C@@H](C)c2cc(OC)ccn2)C3=O)c(C(F)(F)F)n1	EBC-1	cell growth, inhibitor	120 h	–	EC50	> 30 µM
CCCCN1C[C@H](O)[C@@H](O)[C@@H](O)[C@H]1CO	sample BB patient fibroblasts	Gb3 level lowering, LC-MS/MS, item: Gb3 d18:1/24:1	216 h	–	IC50	10.7 µM
